# Measurements from different studies.
# Parts stem from different laboratories: compare values within a part only. Positions count from the first letter of the parent shown.

# Study 1
# Target: RING finger protein unkempt homolog, zinc fingers 1-6, GST-SBP tag (UNK, Homo sapiens, UniProt Q9C0B0, residues 30-357)
# Technique: RNA Bind-n-Seq
# Form: RNA
# Matrix: in vitro
# Concentration: not given
# Notes: RNA with constant flanks, ends assumed
# Reference: input RNA pool
# Direction: higher = stronger binding
# All sequences stand within: GGGAGUUCUACAGUCCGACGAUC … CAACAGAGGAUUGAGCAUCA
# Residues (chain): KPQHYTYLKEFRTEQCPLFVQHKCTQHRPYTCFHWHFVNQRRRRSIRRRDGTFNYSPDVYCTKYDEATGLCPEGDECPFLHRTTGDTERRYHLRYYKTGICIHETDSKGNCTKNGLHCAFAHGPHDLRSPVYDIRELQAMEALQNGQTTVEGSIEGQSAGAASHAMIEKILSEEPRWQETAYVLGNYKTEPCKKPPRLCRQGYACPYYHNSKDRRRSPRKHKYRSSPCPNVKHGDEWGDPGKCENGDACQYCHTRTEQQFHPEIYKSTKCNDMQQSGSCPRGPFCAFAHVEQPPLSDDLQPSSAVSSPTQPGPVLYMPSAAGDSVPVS
Oligonucleotide,bound/input enrichment
UCCCCUUAUGAUCAGGCGGCUUGGAUUUUGAAAGCACGGGCGCUGACAGAGAUGGUGUACACCGAUGAAAUUGAUGUGGACCAGGAAGGAAUUGCUGAAAUGAUCCUGGAUGAAAAUGCU,0.194 ratio
GAGGGAAGAGAUGAAUCUUCAAGGAUACCUACCUCUGAUACAUCAUCUAGAUCUCAUAUUUUCCGAAGAGAAUCAAAUGAAGUGGUUCACCUUGAAGCACAGAAUGAUCCUCUUGGAGCU,0.216 ratio
GAGCUUAAAGAAGUGGAGCCCAAAUUAGCCGCCUGGAUCCAAAAACUUAAUAGCUUUGGCUCCGAUGCCACAGGAACUUUCUUUUCUCGUUAUGGAGCAUCUCUUAAACUGCUUGAUUUU,0.548 ratio
UGUGACAAGCUUUAUACUUGCCGCUUGUGUCAUGAUAACAAUGAAGAUCAUCAACCCGAUCGCUUUAAAGUGAAGGAAGUGCAGUGCAUAAACUGUGAAAAAAUUCAACAUGCCCAACAG,0.0729 ratio
UAUCUUUACAAGUACCUGUGGAGGCUGAUGGUGAAGGACAUGUCCAAGAUAUACAGCUUGUACCGCACCCUCUUGGCUCAUAAAAAACUACAUAUAAGAAAUUUUGCAGCCGAAAGUUUU,0.247 ratio
AGUUUUUCUGCUUCCAAAAUUUUUAUUUCUGCAUUAGCUAUGGAUGGACAACAACUUUCCGUGGCAUAUCCCUGUGCUUUGUUGUAUGGAGUCUUUGCCCUGAUUUCUGUCUUCUGAACU,0.284 ratio
GAGUUUUCCCCACCAAGGGGACCAUGCACAUGGUAGAAACAUUAGAUUCUGCAUUGACAGCCGCCUUUCCUUGGCCCGGGCCUGUGGUGGGAAGACGGGCAACAAGUAUACCCCACCAGG,0.208 ratio
CACUCCCUCCCUCUAACAGCAGGCUGUGUGGGUUUCAAUUCCCAUCCUCCCCACCCUGGCCCGGUGUCGUCCACCCUGUAUCCUAUCAUGUGUCUGUGUGUGGGGGGGUUCUGUACUAAU,0.24 ratio
GGGCCGCAGACACGUAGGCUGGGGUGAGGAGUGUCUGCUGUCACCCUCUACUCUCCAGCUUCCGUCUUAUAAAUGUAGUGAUAGGAUUCCUUGUUGCUUGGUCCCCAAAGCCUUAUACUU,0.18 ratio
ACAGACUUACUAAGAUUAUUUGAAUAUGGAGGUUUUCCACCAGAAGCCAACUAUCUUUUCUCCGGAGAUUAUGUGGACAGAGGAAAGCAGUCUUUGGAAACCAUCUGUUUGCUAUUGGCU,0.816 ratio
CAAACGUUGUUGGGAAUAAUUGUGAGGAUGAAGUUUUUGCUGCUGCAGCAGAAGUACCCCGAAUACCUGGAGGAUGGCAAGGUCCUGGAGGCACUUCAAGUUCUACGCUGUGAAUUGACG,0.313 ratio

# Study 2
# Target: NFE2, bZIP domain (human)
# Technique: DHFR protein complementation
# Matrix: yeast
# Notes: single substitutions, most at no-binding floor
# Reference: wild-type JUN-FOS pair
# Direction: higher = stronger binding
# Starting sequence: JUN, bZIP domain (human); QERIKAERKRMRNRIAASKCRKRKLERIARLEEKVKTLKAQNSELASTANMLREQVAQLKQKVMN; partner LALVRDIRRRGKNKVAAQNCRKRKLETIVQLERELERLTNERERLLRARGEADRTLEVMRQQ
Substitution,binding fitness
A40M,-1.36 natural log
M51H,-1.48 natural log
M51A,-1.48 natural log
T48Y,-1.48 natural log
L31M,-1.24 natural log
T37D,-1.31 natural log
R30E,-1.41 natural log
L45K,-1.44 natural log
L38T,-1.5 natural log
R30M,-1.4 natural log
V56N,-1.48 natural log
V56E,-1.36 natural log
K36R,-1.35 natural log
L38N,-1.59 natural log
Q41H,-1.46 natural log
A46P,-1.56 natural log
L45E,-1.54 natural log
N42D,-1.44 natural log
L38H,-1.44 natural log
L38G,-1.45 natural log
S43G,-1.45 natural log
K39W,-1.46 natural log
T48L,-1.49 natural log

# Study 3
# Target: ABI1, truncated, D143A, DHFR fusion (Arabidopsis thaliana)
# Technique: DHFR PCA, deep sequencing
# Matrix: yeast
# Notes: methotrexate growth selection, single substitutions
# Together with: (+)-ABA 710 µM
# Reference: wild-type fitted maximum
# Direction: higher = stronger binding
# Starting sequence: PYL1, truncated, DHFR fusion (Arabidopsis thaliana); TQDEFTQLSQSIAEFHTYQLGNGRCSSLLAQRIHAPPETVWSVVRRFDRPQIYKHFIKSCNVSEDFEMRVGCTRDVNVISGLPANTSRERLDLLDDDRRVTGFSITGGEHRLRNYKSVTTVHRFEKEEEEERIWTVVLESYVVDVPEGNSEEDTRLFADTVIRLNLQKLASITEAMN; partner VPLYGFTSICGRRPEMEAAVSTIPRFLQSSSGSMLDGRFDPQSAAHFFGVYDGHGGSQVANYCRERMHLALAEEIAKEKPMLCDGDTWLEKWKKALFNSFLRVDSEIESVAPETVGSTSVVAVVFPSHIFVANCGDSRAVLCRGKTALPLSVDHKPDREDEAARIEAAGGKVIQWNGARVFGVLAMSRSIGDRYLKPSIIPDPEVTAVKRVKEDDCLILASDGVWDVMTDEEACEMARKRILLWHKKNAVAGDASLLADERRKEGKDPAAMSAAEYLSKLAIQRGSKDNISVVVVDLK
Substitution,relative binding score [%]
R99M,112
P50M,-5.23
M68V,101
R113M,102
R155V,102
S26I,86.7
S171M,96.4
L166V,36.2
R98E,97.2
N61P,77.1
Y53R,83.2
T86R,102
E129W,108
F124D,117

# Study 4
# Target: Interferon regulatory factor 7, full length, phosphomimetic (IRF7, Homo sapiens, UniProt Q92985, residues 1-503, S471D/S472D/S475D/S476D/S477D/S483D/S484D/S487D)
# Technique: protein-binding microarray
# Form: double-stranded DNA, one strand shown
# Matrix: in vitro
# Concentration: 2200 nM top
# Notes: 60-bp whole probe
# Together with: salmon DNA 0.4 mg/ml
# Reference: random background probes
# Direction: higher = stronger binding
# All sequences stand within: GCCTAGCAC … GTCTTGATTCGCTTGACGCTGCTG
# Target sequence (chain): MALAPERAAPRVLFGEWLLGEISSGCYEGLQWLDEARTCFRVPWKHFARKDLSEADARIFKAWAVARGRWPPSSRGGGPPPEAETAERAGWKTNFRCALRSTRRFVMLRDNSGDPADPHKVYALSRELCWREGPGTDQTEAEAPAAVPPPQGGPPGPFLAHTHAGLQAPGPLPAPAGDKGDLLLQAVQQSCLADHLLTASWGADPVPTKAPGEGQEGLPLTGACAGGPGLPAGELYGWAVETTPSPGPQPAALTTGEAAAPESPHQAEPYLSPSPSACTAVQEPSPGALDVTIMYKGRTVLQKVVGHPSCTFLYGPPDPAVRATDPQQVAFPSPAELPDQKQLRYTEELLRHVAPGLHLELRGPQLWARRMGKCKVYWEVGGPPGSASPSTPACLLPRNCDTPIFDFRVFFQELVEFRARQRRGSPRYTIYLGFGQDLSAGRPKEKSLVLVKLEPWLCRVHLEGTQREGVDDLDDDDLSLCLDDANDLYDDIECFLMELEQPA
Oligonucleotide,fitted relative affinity [z-score]
TTAGGTTTCCTTCTCCTTTTGTGCTAG,2.5
TTAGGTCTCCTACTGCTTTTGTGCTAG,0.487
GACGGTCTCGGACTGGGGAAGTGCTAG,-0.533
GGCACCCAAGCTCTTGTTTGGTGCTAG,-0.443
TTAGGACTGGACTTTCGGCTAGTGCTA,1.01
CCTCCTCTCTCTTTCCACTTGTGCTAG,3.73
GACGATTTCTGTCTCGAGACGTGCTAG,1.56
TTAGGACTGGACTATCGGTGAGTGCTA,-0.549
TCAAAATTCTAATTAGAACTGTGCTAG,-0.844
TTAGGACTGCTATTCCTTTAGTGCTAG,0.433
TTAGATTTCGGGTTACGATTAGTGCTA,5.73
GACGGACTGGGTTTCGGGTCGTGCTAG,3.63
TTAGGTATCGGAATGGGTTAGTGCTAG,0.359
GACGATCTCAGTATCGATACGTGCTAG,0.357
TTCCAAATGCCCTCTCCATACGTGCTA,1.26
GACGGTTTCGCACTGGGGACGTGCTAG,3.43

# Study 5
# Target: Sal-like protein 4, full length isoform A (SALL4, Homo sapiens, UniProt Q9UJQ4, residues 1-1053)
# Sequence of UniProt Q9UJQ4 (whole entry, looked up): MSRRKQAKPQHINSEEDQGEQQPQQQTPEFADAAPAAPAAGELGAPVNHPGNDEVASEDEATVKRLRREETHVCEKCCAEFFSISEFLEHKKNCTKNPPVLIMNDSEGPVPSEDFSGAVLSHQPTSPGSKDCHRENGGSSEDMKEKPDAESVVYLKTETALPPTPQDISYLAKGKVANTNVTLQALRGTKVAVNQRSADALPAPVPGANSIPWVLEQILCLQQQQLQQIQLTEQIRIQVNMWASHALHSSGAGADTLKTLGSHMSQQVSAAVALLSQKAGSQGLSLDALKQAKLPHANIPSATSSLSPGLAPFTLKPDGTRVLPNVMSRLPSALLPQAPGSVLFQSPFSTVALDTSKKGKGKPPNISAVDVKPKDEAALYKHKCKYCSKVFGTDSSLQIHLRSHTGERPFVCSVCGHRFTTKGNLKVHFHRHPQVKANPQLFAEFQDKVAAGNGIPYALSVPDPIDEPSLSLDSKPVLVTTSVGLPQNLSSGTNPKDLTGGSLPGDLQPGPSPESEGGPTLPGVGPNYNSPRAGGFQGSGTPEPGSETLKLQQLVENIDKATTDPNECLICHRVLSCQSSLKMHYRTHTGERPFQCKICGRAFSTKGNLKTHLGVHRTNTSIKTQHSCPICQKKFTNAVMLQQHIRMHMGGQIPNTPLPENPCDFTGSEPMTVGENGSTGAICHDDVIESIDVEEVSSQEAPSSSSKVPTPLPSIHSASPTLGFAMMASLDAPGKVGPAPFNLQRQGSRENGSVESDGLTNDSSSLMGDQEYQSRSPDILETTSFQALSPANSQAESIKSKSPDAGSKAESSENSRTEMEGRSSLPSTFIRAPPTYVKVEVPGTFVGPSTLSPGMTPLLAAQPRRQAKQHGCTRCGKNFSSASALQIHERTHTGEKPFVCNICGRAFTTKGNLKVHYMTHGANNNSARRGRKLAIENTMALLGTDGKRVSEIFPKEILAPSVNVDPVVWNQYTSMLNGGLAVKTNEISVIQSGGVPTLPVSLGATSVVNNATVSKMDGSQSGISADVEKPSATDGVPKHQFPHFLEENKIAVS
# Technique: universal PBM
# Form: double-stranded DNA, one strand shown
# Matrix: in vitro
# Concentration: 600 nM
# Notes: 8-mer, flanks averaged, mean of replicates
# Direction: higher = stronger binding
Oligonucleotide,E-score
CGATATAC,0.0599
CATGATGG,-0.0808
TAAAACCA,0.219
GATGATCC,-0.0754
ACTCCGAG,-0.0774
ACATTCCA,0.0827
GAATCAGA,0.0041
AGATATTG,0.321
AAACTTCG,-0.0133
TCTGGAAA,0.176
TATTTCGA,0.325
GTCTGGTA,-0.0675
AGTGAAAG,0.153
ATGGTTAG,0.0171
AACTGGTG,-0.151
AGCATGAA,0.0972
AAGGGAGA,-0.0466
TCGAGGCA,-0.00852
ACAAACAG,0.0802
CCCTCCGA,-0.341
ACCGGTTG,-0.256
GCTATCGA,-0.0358
GTTCAATA,0.226
AATTCCTG,0.0218

# Study 6
# Target: CCNB3, cyclin fold, Cln2 fusion (human)
# Technique: yeast growth competition, sequencing
# Matrix: yeast
# Notes: weak parent motif
# Reference: not given
# Direction: higher = stronger binding
# Starting sequence: CUX1 docking peptide (human); SRIRRELFIEEIQ; partner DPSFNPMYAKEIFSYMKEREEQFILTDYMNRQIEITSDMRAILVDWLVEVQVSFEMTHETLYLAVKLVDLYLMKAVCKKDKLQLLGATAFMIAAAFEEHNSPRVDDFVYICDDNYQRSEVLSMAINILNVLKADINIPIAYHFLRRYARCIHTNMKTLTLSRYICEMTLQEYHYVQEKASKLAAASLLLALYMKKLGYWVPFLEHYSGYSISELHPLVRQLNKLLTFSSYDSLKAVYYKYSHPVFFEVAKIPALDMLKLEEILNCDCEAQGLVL
Substitution,normalised enrichment score
Q13A,0.11
R5A,-0.193
E11A,0.509
I3A,0.243
R2A,0.199
I12A,-0.134
F8L,0.131

# Further values, each from its own experiment
Substance,target,assay,test system,conditions,how to read,measurement,result
"PhoQ, residues 284 288 289 292 302 303 TGYLSA","PhoP, residues 12 14 15 18 19 LHSVQ (Escherichia coli, UniProt P23836)","Sort-seq, measured: YFP reporter",E. coli,"PhoQ-PhoP variant library, together with: 10 µM Mg2+","reference: high Mg2+ state, higher = stronger signaling",fold induction,17.5

# Repeated from above (study 5):
Oligonucleotide,E-score
AGATATTG,0.321
GCTATCGA,-0.0358
AATTCCTG,0.0218
CGATATAC,0.0599
ACAAACAG,0.0802
CCCTCCGA,-0.341
ACATTCCA,0.0827
ACTCCGAG,-0.0774
CATGATGG,-0.0808
